Experimental data collected from several papers.
Parts stem from different laboratories: compare values within a part only.

Sample 1
Target: Sal-like protein 4, full length isoform B (SALL4, Homo sapiens, UniProt Q9UJQ4-2, residues 1-616)
Technique: universal PBM
Molecule type: double-stranded DNA, one strand shown
Medium: in vitro
Tested at: not given
Setting: 8-mer, flanks averaged, mean of replicates
Direction: higher = stronger binding
| Oligonucleotide | E-score |
| --- | --- |
| ATGCTACG | 0.0896 |
| AATCAACC | -0.0759 |
| CGGGCATA | -0.00139 |
| AGCGTTCC | -0.0971 |
| CAGGCATC | -0.00591 |
| AGGTGCCG | -0.226 |

Sample 2
Target: Interferon regulatory factor 5, full length, phosphomimetic (IRF5, Homo sapiens, UniProt Q13568-2, residues 1-514, K96S/S451D/S453D/S456D/S462D)
Technique: protein-binding microarray
Molecule type: double-stranded DNA, one strand shown
Medium: in vitro
Tested at: 250 nM
Setting: 60-bp whole probe
Together with: salmon DNA 0.4 mg/ml
Reference: random background probes
Direction: higher = stronger binding
All sequences stand within: GCCTAGCAC … GTCTTGATTCGCTTGACGCTGCTG
| Oligonucleotide | log fluorescence [z-score] |
| --- | --- |
| TTCGATTTCAGTCTCGATTAGTGCTAG | 3.64 |
| TCAACTCTTCTTTTGCTACTGTGCTAG | 0.832 |
| CTCTGCTTGTGTCTGGGATTGTGCTAG | -0.364 |
| TTAGGTCTCCCACTGCTTTAGTGCTAG | -0.417 |
| GATGGACTGGGGACTGGGGACGTGCTA | -0.356 |
| GACGGTATTGGGTTTCGGGACGTGCTA | 2.35 |
| TTAGGTATGGGGACTGGGTTAGTGCTA | 0.0239 |
| TTAGATTTCAATTCCGATTAGTGCTAG | 1.56 |
| TTAGGACTCCTTATCCTTTAGTGCTAG | 0.162 |
| TTGTGTCTGGGCATTTTTTTTGTGCTA | -0.459 |

Sample 3
Target: Histone acetyltransferase KAT6A, winged helix 1, GST fusion (KAT6A, Homo sapiens, UniProt Q92794, residues 1-85)
Technique: protein binding microarray
Molecule type: double-stranded DNA, one strand shown
Medium: in vitro
Tested at: not given
Setting: 8-mer, flanks averaged, mean of 2 arrays, mostly near background
Reference: not given
Direction: higher = stronger binding
Target sequence (chain): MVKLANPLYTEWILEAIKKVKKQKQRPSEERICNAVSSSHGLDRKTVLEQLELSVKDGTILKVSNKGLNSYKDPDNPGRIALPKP
| Oligonucleotide | E-score |
| --- | --- |
| GTCAGTTA | -0.017 |
| CAGCACTA | 0.0169 |
| GTACGCGA | 0.179 |
| AAAGTCAA | -0.14 |
| CAGTAGTA | -0.0528 |
| AATGCTGT | -0.154 |
| AGAGTATG | 0.0121 |
| TATGGTCA | -0.169 |
| ACGAGCTA | -0.0825 |

Other studies, line by line
| Molecule | target | test | test system | setting | how to read | endpoint | value |
| --- | --- | --- | --- | --- | --- | --- | --- |
| PhoQ, residues 284 288 289 292 302 303 SLANIV | PhoP, residues 12 14 15 18 19 NYFTV (Escherichia coli, UniProt P23836) | Sort-seq, item: YFP reporter | E. coli | PhoQ-PhoP variant library, together with: 10 µM Mg2+ | reference: high Mg2+ state, higher = stronger signaling | fold induction | 11 |

Excerpt of the above (sample 2):
| Oligonucleotide | log fluorescence [z-score] |
| --- | --- |
| TTAGATTTCAATTCCGATTAGTGCTAG | 1.56 |
| CTCTGCTTGTGTCTGGGATTGTGCTAG | -0.364 |
